Measured values pooled from the literature.
Every numbered part comes from another study and shows a few of its results, in no order.

Sample 1 — method: protein binding microarray; form: double-stranded DNA, one strand shown; sample: in vitro; tested at: not given; reference: not given; direction: higher = stronger binding
Target: Histone acetyltransferase KAT6A, winged helix 2, GST fusion (KAT6A, Homo sapiens, UniProt Q92794, residues 85-181)
Notes: 8-mer, flanks averaged, mean of 2 arrays, mostly near background
Target sequence (chain): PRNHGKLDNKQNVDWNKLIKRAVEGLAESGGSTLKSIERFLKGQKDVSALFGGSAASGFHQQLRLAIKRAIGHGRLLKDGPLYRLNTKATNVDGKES
`GGGATAAA` has an E-score of 0.101.
The E-score of `AGGCATAA` is reported as -0.0428.
`AGGGCTAT` gave an E-score of -0.337.
For `CAAATTCG`, the E-score was 0.112.
For `GCTTACCC`, the E-score was 0.0676.
`AAATATAA` gave an E-score of 0.166.

Sample 2 — method: protein-binding microarray; form: double-stranded DNA, one strand shown; sample: in vitro; tested at: 940 nM top; notes: 60-bp whole probe; added: salmon DNA 0.4 mg/ml; reference: random background probes; direction: higher = stronger binding
Target: Interferon regulatory factor 5, full length, phosphomimetic (IRF5, Homo sapiens, UniProt Q13568-2, residues 1-514, S451D/S453D/S456D/S462D)
`GCCTAGCACTTGTTTTTTGGTTTCTGGTTGTGCTAGGTCTTGATTCGCTTGACGCTGCTG` — result for “fitted relative affinity”: 4.71 z-score.
`GCCTAGCACGACGGACTGGGTTTCAGGACGTGCTAGGTCTTGATTCGCTTGACGCTGCTG` — result for “fitted relative affinity”: 0.394 z-score.
For `GCCTAGCACTTAGGTCTCCTACTGATTTAGTGCTAGGTCTTGATTCGCTTGACGCTGCTG`, “fitted relative affinity” read -0.117 z-score.
`GCCTAGCACTTAGATCTCAGTTTGGATTAGTGCTAGGTCTTGATTCGCTTGACGCTGCTG`: “fitted relative affinity” 0.115 z-score.

Sample 3 — method: RNA Bind-n-Seq; form: RNA; sample: in vitro; tested at: 20 nM; notes: 6-mer, flanks averaged, single round; added: 150 mM KCl; reference: input library; direction: higher = stronger binding
Target: TAR DNA-binding protein 43, full length, His tag (TARDBP, Homo sapiens, UniProt Q13148, residues 1-414)
`GAAAGC` — result for “6-mer enrichment (R)”: 0.807.
For `AUUGAG`, “6-mer enrichment (R)” read 0.891.
For `AAUUGG`, “6-mer enrichment (R)” read 0.896.
For `GUAUAG`, “6-mer enrichment (R)” read 0.904.

Other studies, line by line
For `PhoQ, residues 284 288 289 292 302 303 SIHLQL`, the fold induction was 18.5 (PhoP, residues 12 14 15 18 19 AGCRL (Escherichia coli, UniProt P23836); Sort-seq, measured: YFP reporter; E. coli; PhoQ-PhoP variant library, added: 10 µM Mg2+; reference: high Mg2+ state, higher = stronger signaling).

Some of these lines once more (sample 1):
For `CAAATTCG`, the E-score was 0.112.
For `GCTTACCC`, the E-score was 0.0676.
